# Assay results pooled from the literature.
# Lines come from different studies, so protocols differ. Several values in a cell are separate wells, animals, samples, runs or records.
# TYK2: Non-receptor tyrosine-protein kinase TYK2 (TYK2, Homo sapiens, UniProt P29597)
SMILES,target,assay,system,setting,how to read,endpoint,value
CCn1cc(C(=O)O)c(=O)c2c(N)c(F)c(NC3CCCCC3)cc21,"Non-receptor tyrosine-protein kinase TYK2, JH1 domain (TYK2, Homo sapiens, UniProt P29597)",kinase activity,,"0.1 µM, with: ATP at Km",,inhibition,-9.6%
C[C@H]1CN(C(=O)c2cn(-c3ccnc(N)n3)c3cc(C#CC4(O)CCCCC4)ccc23)CCN1,TYK2,"enzyme activity, inhibitor, FRET",,1 µM,,inhibition,1%
CS(=O)(=O)Nc1cccc(-c2csc3cnc(Nc4ccc(N5CCN(CCCCCOc6cccc7c6C(=O)N(C6CCC(=O)NC6=O)C7=O)CC5)cc4)nc23)c1 (centres unmarked),"Non-receptor tyrosine-protein kinase TYK2, JH2 pseudokinase domain (TYK2, Homo sapiens, UniProt P29597)","probe labelling, inhibitor, KiNativ chemoproteomics",MOLT-4,1 µM,,inhibition,-2.09%
O=C(Cc1ccc(OCc2ccccc2)cc1)NC1(C(=O)O)CCN(C(=O)c2ccc(-c3cccc(Cl)c3)cc2)CC1,TYK2,"enzyme activity, inhibitor",,10 µM,,activity vs control,109%
Cc1ccc(C(=O)Nc2ccc(CN3CCN(C)CC3)c(C(F)(F)F)c2)cc1C#Cc1cnc2cccnn12,TYK2,"target engagement, NanoBRET",human cells,,,upper asymptote,53.2
CN1CC[C@@H](COc2cnc(C#N)cc2-c2ccn3nc(NC(=O)C4CC4)cc3c2)C1,TYK2,"enzyme activity, inhibitor",,1 µM,,inhibition,2%
COCC12C(=O)NC3C4(C(OC)CC1O)C1CC5(O)C(OC)C(O)C(OC(C)=O)(C1C5OC(=O)c1ccccc1)C3(O)C(OC)C24 (centres unmarked),TYK2,"kinase activity, inhibitor, ProQinase kinase profiling",,25 µM,baseline: control,remaining activity,101% and 102%
Cc1cccc(O[C@H]2CCC[C@@H](C(C)CNCc3ccncc3)C2)c1 (relative stereo),TYK2,"kinase activity, kinome panel screening",,10 µM,,inhibition,-1%
NC(=O)C[C@H]1CCc2sc3ncnc(O[C@H]4CC[C@H](N5CCOCC5)CC4)c3c21,TYK2,"enzyme activity, inhibitor",,10 µM,,inhibition,-5%
N[C@H]1CC[C@H](Nc2nccc(-c3cccnc3Oc3ccc(NC(=O)NC4CC4)c4ccccc34)n2)CC1,TYK2,kinobead competition pulldown,HEK293/HCT116 lysate mixture,"10 µM, 1 h, 4 °C",lower = stronger competition,log2 LFQ intensity,18.2 and 20.7 and 20 and 20.2
C=CC(=O)N1Cc2nc(-c3cc(-c4cc(Cl)cnc4Cl)c(F)cc3F)n(-c3ccncn3)c2C1,TYK2,"cell-free assay, inhibitor",,1 µM,,inhibition,-1.7%
Cc1cnc2nc1Nc1cccc(c1)COC/C=C/COCc1cc(ccc1OCCN1CCOCC1)N2,"Non-receptor tyrosine-protein kinase TYK2, JH2 (TYK2, Homo sapiens, UniProt P29597)",cell-free assay,,0.1 µM,,remaining signal,19%
C=CC(=O)Nc1cccc(-c2cnc3[nH]cc(C(=O)NC(C)(C)C)c3n2)c1,TYK2,kinase activity,,0.1 µM,,inhibition,39% and 40%
CNC(=O)C[C@H](Cc1ccc(C#N)cc1)NC(=O)c1cc(-c2ccc(CN[C@H](C)c3ccc(C)cc3)o2)ccc1Cl,TYK2,"enzyme activity, inhibitor",,1 µM,,activity vs control,109%
O=C(Nc1ccc(Oc2ncnc3[nH]cc(-c4ccccc4)c23)c(F)c1)c1c2n(n(-c3cc(F)ccc3F)c1=O)CCCC2,TYK2,"enzyme activity, inhibitor",,0.5 µM,,inhibition,8%
NC(=O)[C@@H](O)C[C@H]1CCc2sc3ncnc(O[C@H]4CC[C@H](N5CCOCC5)CC4)c3c21,TYK2,"enzyme activity, inhibitor",,10 µM,,inhibition,-5%
CN1CCN(Cc2ccc(-c3ccc(CO[C@H]4CCC[C@@H]4NC(=O)c4cc(-c5cnn(C)c5)cnc4N)cc3)cc2)CC1,TYK2,"enzyme activity, inhibitor",,0.1 µM,,inhibition,3%
